Results collected from several papers.
A part holds a random share of what one study measured. Positions count from the first letter of the parent shown.

Study 1
Target: CCNA1, cyclin fold, Cln2 fusion (human)
Technique: yeast growth competition, sequencing
Medium: yeast
Setting: weak parent motif
Baseline: not given
Reading: higher = stronger binding
Starting sequence: PKMYT1 docking peptide (human); SFEPRNLLSLFED; partner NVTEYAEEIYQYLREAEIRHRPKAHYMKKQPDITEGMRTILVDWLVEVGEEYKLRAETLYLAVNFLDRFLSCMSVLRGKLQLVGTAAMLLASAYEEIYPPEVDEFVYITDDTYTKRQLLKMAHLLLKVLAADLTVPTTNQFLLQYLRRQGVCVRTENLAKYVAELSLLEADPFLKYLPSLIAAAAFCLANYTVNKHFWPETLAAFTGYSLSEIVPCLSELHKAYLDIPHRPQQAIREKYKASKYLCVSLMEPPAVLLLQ
Variant	normalised enrichment score
D13L	0.0958
F11V	0.141
S9K	-0.0533
S9M	0.0913
L8R	0.117
E12S	-0.267
F11K	0.163
L10T	0.348
L7W	0.137
F2N	0.0811
F11R	0.201
R5T	0.0439
N6F	0.491
E3Q	0.2
L7Y	0.0759
S9V	0.401
E12A	-0.02
F11W	0.5
L8W	0.202
L10M	0.138
E12W	-0.0277
F2H	-0.0721

Study 2
Target: RNA binding protein fox-1 homolog 2, RRM domain, GST-SBP tag (RBFOX2, Homo sapiens, UniProt O43251-10, residues 100-194)
Technique: RNA Bind-n-Seq
Form: RNA
Medium: in vitro
Concentration: 365 nM
Setting: natural RNA segment, single round, ends assumed
Baseline: no-protein control
Reading: higher = stronger binding
Constant ends, left off below: GGGAGUUCUACAGUCCGACGAUC … UGGAAUUCUCGGGUGCCAA
Construct (chain): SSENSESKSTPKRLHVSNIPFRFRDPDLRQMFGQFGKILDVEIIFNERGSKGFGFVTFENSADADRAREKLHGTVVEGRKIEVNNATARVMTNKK
Oligonucleotide	RBNS enrichment (R)
AUCUCAAUGGGCCUAUACAGGAAAGGCUGUUAAUUUAAGUCUGUCGUUACUUUCUGGCGAAUUUAACAUAAGCCUUGGGCACCUGUCACAAUUUUCUAAAGAUGGUUUGG	0.543
UAUUUUUUGUAUUAGUAUGGUUUGAGACAACAUAUGGAAAAUGUUCACAUUUGUAGAUUAAGCUGGAAUUAUAAUGAGAGCAAUAAGAACAAAUUUAUUUUGCUUACCAC	1.25
UGUGGAACGAAGAGGAUGGGGAAAAGGCAGAGGGCACUGAGUGUCCCUUUAAAAACUAACCCACUGAAUAUUCCGUGUGAUCUAGAACAGUGUGGCAGCUUUCACAGCAC	0.44
AGCCCCUGGCGACAAGCAGUGUCUAGAAGAGGAUCUGGAGCCAGGCAGACUGGCUGCUUUUAUUUUGAAGUUCCCAAGAGGAAUGGAGGGAUGCUUUAAGGGUGGGAACA	0.577
CUGGCAAGACUCAGGGUCCUCAGUGGACAUGGUGUGGGUGACAUCAGAAGGGUGCCACAUCAGUCCCCUCCCCAACCUCAGUGACUGACAGAGGAUCCGGAUCUCAGAGC	0.324
GAAAACCAGACUCUCCUCCCAAACUAGCCUCAGGAGCUUGGCGAACCCGCUCGCUCCUAAAGAGAAAGACCCAGGACCCUCCCCCAUCACCCCCAAGAGAGGUUCGCCAU	0.438
AUGGGCAGAAUGGACGGGGUGGGCCACCCAGCCAGGCCACCUCUCCCCAGACCCCUGCUGCCAGCCACCAGCGCCAGCCUCGGGGACCUCCGGCCGUCCCUACCGACAGU	0.197
UGCCAGCCACCUGUUCUCGCCACCGGCCACCACGUGCCGGGCCGCCAUCGGAGGUGCCUGAAGAGCUUGUGUCAGGGAGCGGUUUGGCCAGUCAGAGACAAGUCCCAAGA	0.43
CAGCAAAGAAGAUAUAGGCAGUAAUAUCAACACUGCUAUAUCAUGUGUAGGACAUUUCUUAUCCAUUUUUUCUCUUUUACUUGCAUAGUUGCUAUGUGUUUCUCAUUGUA	0.912
CCCCAUCUCCUCCUUCCAGCCAGGUCUGGAAGUUUCAACAGCCCAAGCUUAACUUCAUGUAAAGUCUUCACUGCCAGUGGGAACAUCUUUGACACAACAAGACACUCCAA	0.243
AGCCAGUAAACCCAUCCCCCCUGAGCCAGCUGCAGAGAAUGGAGCCCAAACAGAUGUUCUGGGUGCGAGCCCGGGGCUAUAUUGGCGAGGGCGACAUGAAGAUGCACUGC	0.182
ACAGAUAGGCCAAGGGCUACUCUCUGGCAUCUCCAGGUGUUUUGUAGCAAACAGCCACUUAGUGCUUUGUCCUGGACUCCACUCAGCCUCAGGAUGGGGAAUAGCCAAGA	0.355

Study 3
Target: ABI1, truncated, D143A, DHFR fusion (Arabidopsis thaliana)
Technique: DHFR PCA, deep sequencing
Medium: yeast
Setting: methotrexate growth selection, single substitutions
With: (+)-ABA 0.39 µM
Baseline: wild-type fitted maximum
Reading: higher = stronger binding
Starting sequence: PYL1, truncated, DHFR fusion (Arabidopsis thaliana); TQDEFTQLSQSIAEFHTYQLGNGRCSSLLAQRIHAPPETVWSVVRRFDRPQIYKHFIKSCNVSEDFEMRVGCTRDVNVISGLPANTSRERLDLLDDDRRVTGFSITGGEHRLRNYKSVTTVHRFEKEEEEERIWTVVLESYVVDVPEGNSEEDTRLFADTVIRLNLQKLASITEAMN
Variant	relative binding score [%]
Q2E	51.4
I33Q	-4.25
A170H	-31.4
G23E	7.48
T106M	51.5
G148Y	-29.3
I52K	7.76
P50K	-11
P37Q	18
E4G	12.3
L166I	6.13
T73R	6.7

Study 4
Target: Fragile X messenger ribonucleoprotein 1, C-terminal low-complexity region (Fmr1, Mus musculus, UniProt P35922)
Technique: RNA Bind-n-Seq
Form: RNA
Medium: in vitro
Concentration: 200 nM
Setting: whole 134-nt RNA, ends assumed
With: 150 mM KCl
Baseline: input library
Reading: higher = stronger binding
Constant ends, left off below: GGGAGUUCUACAGUCCGACGAUC … UGGAAUUCUCGGGUGUCAAGG
Oligonucleotide	log2 enrichment
GCAGGAAGUAAAAACAAAUGGAAAUGCUUCGGAUAGUGGCAGGGGUGGGGGUUGCUAAGUAAAGGGUGGGAUGGGAGUGGGUAAAGAGUU	0.119
UGUGAAAGAAAACCGAAGUUUUAAAUGACUUCUCAUGGUUAUUUUUUUUCCUUUCUCUUGCAGGACAUUGGGGACACAUUGAGCAGGUAU	0.279
CAAGUCCUGUGCUACACAUCGUAUGUACCGAAUCGGGUUUGGUUUGGGGUUUGGGGAAAGUAUUAUGUUACGCCGUUCGGAUCUGCACUU	0.529
UGGCCCUGGUGGCAUGCGGGGAGGAAGAGGCGGCCUCAUGGAUCGUGGUGGUCCCGGUGGAAUGUUCAGAGGUGGCCGUGGUGGAGACAG	-0.118
UGGGUGAAGAGGGACAGUUACCUUCCUGUGGGCAGUCAUAAUCUCAAGGCGGCCGCCAAGGCCAAGCUAGGCUAUGAUCCCGUGGAGCUA	-1.28
CAAGUCCUGUGCUACACAUCGUAUGUACCGAAUCGGGUUUUGGUUUUGGUUUUGGGAAAGUAUUAUGUUACGCCGUUCGGAUCUGCACUU	-0.759
UGCACUGACUGGUGGUGUCAACCCAUGGCUCAACUGGAAGCACUGUGGAAGAAGAUGGAGGGUGUGGUAAGUCCAUCAGACCUGGGACCG	-0.894
CCUGUGCUACACAUCGUAUGUACCGAAUCGGGUUUUUGGGUUUUUUUGGGAAAAAAAGGGAAAGUAUUAUGUUACGCCGUUCGGAUCUGC	-0.745
CCUGUGCUACACAUCGUAUGUACCGAAUCGGGGUUUUUUGGGGUUUUUUGGUUUUUUGGGGAAAGUAUUAUGUUACGCCGUUCGGAUCUG	-0.566
CAAGUCCUGUGCUACACAUCGUAUGUACCGAAUCGGUUUUUGGAAAAAAAGGUGGAAAGUAUUAUGUUACGCCGUUCGGAUCUGCACUUC	-0.534
GUCCUGUGCUACACAUCGUAUGUACCGAAUCGGGUUUUUUUGGGAAAGGGUUUUUGGGAAAGUAUUAUGUUACGCCGUUCGGAUCUGCAC	-0.204
AAGUCCUGUGCUACACAUCGUAUGUACCGAAUCGGGUUUGGGAAAGGGAAAAAGGGAAAGUAUUAUGUUACGCCGUUCGGAUCUGCACUU	0.471
CACAGACAACACACACCCACACAGACACAGAGGGAAGGGGUUGGGAUGGGGACAGGGUGCACAGCAGGGCGGGGUAGGACCCCAGCCCCU	1.13
CUCAAGUCCUGUGCUACACAUCGUAUGUACCGAAUCGGUGGAAAAAGGAAAGGAAAGUAUUAUGUUACGCCGUUCGGAUCUGCACUUCCA	-0.155

Study 5
Target: Histone acetyltransferase KAT6A, both winged helices, GST fusion (KAT6A, Homo sapiens, UniProt Q92794, residues 1-181)
Technique: protein binding microarray
Form: double-stranded DNA, one strand shown
Medium: in vitro
Concentration: not given
Setting: 8-mer, flanks averaged, mean of 2 arrays, mostly near background
Baseline: not given
Reading: higher = stronger binding
Target sequence (chain): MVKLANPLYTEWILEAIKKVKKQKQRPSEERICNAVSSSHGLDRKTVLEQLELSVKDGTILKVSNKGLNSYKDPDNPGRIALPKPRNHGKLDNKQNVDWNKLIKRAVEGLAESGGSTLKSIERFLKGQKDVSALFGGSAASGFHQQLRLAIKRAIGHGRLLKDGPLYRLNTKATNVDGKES
Oligonucleotide	E-score
GAGTTATA	-0.164
TCAAATCA	-0.0885
AAAGACAG	-0.0907
GATATCCA	-0.114
CCGGTATC	0.245
AAATATTG	0.00949
GTTACAAC	0.0589
ATGAGGCC	-0.0158
GTGATTAA	-0.0202
AGCTCTTG	-0.366
GGCATGCA	0.0593
CGGATGAA	0.0868
GGTGGGCA	-0.175
CCTTAAGG	-0.218
CCCGAGAC	0.142
ATCGGTTC	0.105
AGAAAACA	-0.124
CTCTTGCA	-0.16
CGTACGAA	0.121

Further values, each from its own experiment
Substance	target	assay	system	setting	how to read	endpoint	result
PhoQ, residues 284 288 289 292 302 303 GNNTDL	PhoP, residues 12 14 15 18 19 AGCRL (Escherichia coli, UniProt P23836)	Sort-seq, measured: YFP reporter	E. coli	PhoQ-PhoP variant library, with: 10 µM Mg2+	baseline: high Mg2+ state, higher = stronger signaling	fold induction	2.79

Repeated from above (study 1):
Variant	normalised enrichment score
E12S	-0.267
F11K	0.163
L10T	0.348
L7W	0.137
F2N	0.0811
F11R	0.201
R5T	0.0439
N6F	0.491
E3Q	0.2
